Published values collected from several papers.
Numbered parts are unrelated; each lists some results of a single study. Changes are numbered by the printed parent chain.

Sample 1 — target: vanadate, free oxyanion; technique: microfluidic competitive inhibition; medium: in vitro, cell-free expressed; tested at: not given; direction: lower = stronger binding; endpoint: oxyanion analog dissociation constant
Notes: derived from inhibition constants, unchanged parent 676 nM
Starting sequence: PafA, mature enzyme, eGFP fusion (Elizabethkingia meningoseptica, UniProt Q9KJX5); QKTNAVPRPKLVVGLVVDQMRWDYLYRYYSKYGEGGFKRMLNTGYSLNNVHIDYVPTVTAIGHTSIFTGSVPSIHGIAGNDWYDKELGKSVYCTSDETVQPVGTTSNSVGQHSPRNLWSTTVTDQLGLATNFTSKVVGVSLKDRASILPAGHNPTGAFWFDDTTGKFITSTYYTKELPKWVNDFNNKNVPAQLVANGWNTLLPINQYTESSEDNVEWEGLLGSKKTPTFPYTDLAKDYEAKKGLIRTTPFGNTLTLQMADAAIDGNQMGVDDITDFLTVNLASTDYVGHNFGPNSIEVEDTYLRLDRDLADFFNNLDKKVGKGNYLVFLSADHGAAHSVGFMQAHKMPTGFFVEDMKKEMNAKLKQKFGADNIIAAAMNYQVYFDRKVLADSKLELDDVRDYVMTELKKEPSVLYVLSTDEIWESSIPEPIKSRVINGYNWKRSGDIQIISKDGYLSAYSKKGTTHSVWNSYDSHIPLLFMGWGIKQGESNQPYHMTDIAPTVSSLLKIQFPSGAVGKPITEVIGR
I66G: 636 nM
Q257V: 612 nM
T349V: 597 nM
Y415V: 957 nM
R27G: 724 nM
S108G: 796 nM
M268G: 1370 nM
V137G: 1050 nM

Sample 2 — target: CCNE1, cyclin fold, Cln2 fusion (human); technique: yeast growth competition, sequencing; medium: yeast; notes: strong parent motif; reference: not given; direction: higher = stronger binding; endpoint: normalised enrichment score; starting sequence: viral docking peptide; YKVKRRLVFGADD
YKVKRRLVFGHDD [A11H]: 6.19
YKVKRRWVFGADD [L7W]: 0.42
YKVKRRLVFAADD [G10A]: 5.76
YKVKRRLVFGLDD [A11L]: 6.08
YKVKRRLVFGTDD [A11T]: 6.24
YTVKRRLVFGADD [K2T]: 6.46
YHVKRRLVFGADD [K2H]: 6.58
YKVKRKLVFGADD [R6K]: 5.96

Further values, each from its own experiment
CNCc1ccccc1-c1csc([C@H](C)Nc2nc(C)nc3cc(OC)c(OC)cc23)c1  remaining binding (CDPK1 (Plasmodium falciparum, UniProt P62344); cell-free assay, competition with immobilised ligand; 1 µM): 81%
CC(CCc1ccccc1)NC(C)C(O)c1ccc(O)cc1 (stereo not shown)  viability (HaCaT; 100 µM, 60 h): 79.2%
CNC[C@H](O)c1ccc(O)c(O)c1  inhibition (chymotrypsin; enzyme activity; concentration not given): 5.3%
